Assay results of several laboratories.
Parts stem from different laboratories: compare values within a part only.

Series 1
Target: Replicase polyprotein 1ab, nsp13 helicase (rep, Severe acute respiratory syndrome coronavirus 2, UniProt P0DTD1)
Action: inhibitor
Concentration: 20 µM
SMILES	inhibition [%]
CC(C)N(CCNC(=O)CN1CCCC1=O)C(C)C	-0.84
CN[C@H]1CN(c2ccc3c(=O)c(C(=O)O)cn(-c4nccs4)c3n2)C[C@@H]1OC	5.04
CN1C(=O)N(c2cc(Cl)cc(Cl)c2)C(=O)[C@]12CN(Cc1cc(C(=O)O)cs1)C[C@H]2c1ccc(C#N)cc1	1.07
O=[N+]([O-])c1cc([N+](=O)[O-])c(/C=C/c2ccc(Cl)c(Cl)c2)cc1/C=C/c1ccc(Cl)c(Cl)c1	0.71
COc1cc(N2CCN(C)CC2)ccc1Nc1nccc(-c2cn(C)c3cnccc23)n1	44.4
COc1cc(CN2CCN(c3ccc(F)cc3)CC2)cc(OC)c1OC	3.59
CC(C)n1nc(C#Cc2ccccc2)c2c(N)ncnc21	100
Cc1cccc(-c2[nH]ncc2-c2ccc(F)c(-c3cnn(CCO)c3)c2)n1	7.57
COc1cc2ncnc(Nc3cccc(Cl)c3)c2cc1OC	4.34
O=C1CC2(CCCC2)CC(=O)N1CCNCC1COc2ccccc2O1 (stereo not shown)	7.48
NCC(CC(=O)O)c1ccc(Cl)cc1 (racemic)	-2.69
COc1cc2c(cc1Cc1cccc(Cl)c1F)c(=O)c(C(=O)O)cn2[C@H](CO)C(C)C	3.16
O=S(=O)(NC1CCNCC1)c1cc(S(=O)(=O)c2ccccc2)ccc1C(F)(F)F	9.92
COc1ccc(CCNCc2ccc(OCc3ccc(Cl)nc3)c(OC)c2)cc1OC	-0.54
COC(=O)C1=C(C)NC(C)=C(C(=O)NCCCN2CCC(c3ccccc3)(c3ccccc3)CC2)C1c1ccc([N+](=O)[O-])cc1 (stereo not shown)	0.38
Cc1nc2c(OCc3ccccc3)cccn2c1CC#N	0.44
O=C(O)C[C@H]1CC[C@H](c2ccc(NC(=O)c3nnc(Nc4ccc(F)c(F)c4)o3)cc2)CC1	-2.12
N#Cc1c(N)nc(SCc2csc(-c3ccc(Cl)cc3)n2)c(C#N)c1-c1ccc(OCCO)cc1	0.59
C[C@H](Oc1cc(-c2cnn(C3CCNCC3)c2)cnc1N)c1c(Cl)ccc(F)c1Cl	28.6
CNc1ncc2cc(-c3cc(NC(=O)NCCC(C)(C)C)c(F)cc3C)c(C)nc2n1	5.91
CC(CCc1ccc(O)cc1)NCCc1ccc(O)c(O)c1 (stereo not shown)	-0.3
CC(C)(C)c1cc(C(=O)/C(C#N)=N/Nc2cccc(Cl)c2)no1	5.85
Fc1ccc(-c2nc(-c3c(F)cccc3F)[nH]c2-c2ccncc2)cc1	8.75
Nc1nc(Cl)nc2c1ncn2[C@@H]1O[C@H](CO)[C@@H](O)[C@@H]1F	-1.25
O=C(O)CCCO	2.79

Series 2
Target: Replicase polyprotein 1ab, main protease (rep, Severe acute respiratory syndrome coronavirus 2, UniProt P0DTD1)
Read-out: enzyme activity
Action: inhibitor
Concentration: 20 µM
Setting: primary screen
SMILES	inhibition
CC1=NN(c2ccc(C)c(C)c2)C(=O)/C1=N/Nc1cccc(-c2cccc(C(=O)O)c2)c1O	27.4%
CN(CCCN1c2ccccc2CCc2ccccc21)CC(=O)c1ccc(Cl)cc1	81.7%
O=C(O)Cn1c2c(c3cc(F)ccc31)CN(C(=O)c1cccc3ccccc13)CC2	26.3%

Series 3
Target: Histone acetyltransferase KAT6A, winged helix 1, GST fusion (KAT6A, Homo sapiens, UniProt Q92794, residues 1-85)
Technique: protein binding microarray
Form: double-stranded DNA, one strand shown
Sample: in vitro
Concentration: not given
Setting: 8-mer, flanks averaged, mean of 2 arrays, mostly near background
Baseline: not given
Direction: higher = stronger binding
Construct (chain): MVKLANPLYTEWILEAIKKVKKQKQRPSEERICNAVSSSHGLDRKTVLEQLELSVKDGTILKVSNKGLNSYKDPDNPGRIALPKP
Oligonucleotide	E-score
CAGACTAA	-0.147
ACTCCGCT	0.13
AGCGTTAT	0.105
AGTCCCTG	-0.00536
CTCCAAAC	-0.08
AGAACAGC	0.0545
ATCGATTA	-0.139
CAACCGAA	-0.09

Series 4
Target: Sal-like protein 4, full length isoform A (SALL4, Homo sapiens, UniProt Q9UJQ4, residues 1-1053)
Sequence of UniProt Q9UJQ4 (whole entry, looked up): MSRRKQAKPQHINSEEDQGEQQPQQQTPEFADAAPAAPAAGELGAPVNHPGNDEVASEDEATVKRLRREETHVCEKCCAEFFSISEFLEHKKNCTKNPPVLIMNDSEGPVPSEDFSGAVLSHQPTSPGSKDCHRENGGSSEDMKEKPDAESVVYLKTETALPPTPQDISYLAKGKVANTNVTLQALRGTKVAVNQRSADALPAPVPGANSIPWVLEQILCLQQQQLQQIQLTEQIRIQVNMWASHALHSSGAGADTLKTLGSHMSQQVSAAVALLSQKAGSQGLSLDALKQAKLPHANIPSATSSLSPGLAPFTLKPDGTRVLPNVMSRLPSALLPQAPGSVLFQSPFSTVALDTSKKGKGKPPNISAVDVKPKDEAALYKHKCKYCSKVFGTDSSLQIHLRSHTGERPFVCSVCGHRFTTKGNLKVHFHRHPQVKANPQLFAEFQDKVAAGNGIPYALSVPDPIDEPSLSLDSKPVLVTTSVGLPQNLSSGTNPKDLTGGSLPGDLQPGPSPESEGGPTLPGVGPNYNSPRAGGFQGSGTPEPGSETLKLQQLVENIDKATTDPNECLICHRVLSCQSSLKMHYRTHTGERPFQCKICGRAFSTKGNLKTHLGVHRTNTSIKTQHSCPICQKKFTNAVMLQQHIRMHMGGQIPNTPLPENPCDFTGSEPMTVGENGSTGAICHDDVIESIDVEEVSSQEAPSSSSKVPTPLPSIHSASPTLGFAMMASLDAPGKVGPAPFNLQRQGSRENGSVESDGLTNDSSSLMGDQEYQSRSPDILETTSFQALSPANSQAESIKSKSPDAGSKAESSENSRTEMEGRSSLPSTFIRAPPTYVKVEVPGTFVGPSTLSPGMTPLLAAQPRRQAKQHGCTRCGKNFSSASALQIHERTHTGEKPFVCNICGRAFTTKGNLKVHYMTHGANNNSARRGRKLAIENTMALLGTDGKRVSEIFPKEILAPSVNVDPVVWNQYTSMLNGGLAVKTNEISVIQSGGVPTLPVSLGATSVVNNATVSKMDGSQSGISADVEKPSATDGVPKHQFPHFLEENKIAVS
Technique: universal PBM
Form: double-stranded DNA, one strand shown
Sample: in vitro
Concentration: 600 nM
Setting: 8-mer, flanks averaged, mean of replicates
Direction: higher = stronger binding
Oligonucleotide	E-score
CGTAAACC	-0.194
CAGCGTAA	0.0893
ACCGGGAT	-0.269
GACTACCC	-0.238
ATCTAACC	0.0198
CGTATAAA	0.34
GCTTGACA	-0.0174
ACTTCGGA	0.0971

Series 5
Target: RNA binding protein fox-1 homolog 2, RRM domain, GST-SBP tag (RBFOX2, Homo sapiens, UniProt O43251-10, residues 100-194)
Technique: RNA Bind-n-Seq
Form: RNA
Sample: in vitro
Concentration: 365 nM
Setting: natural RNA segment, single round, ends assumed
Baseline: no-protein control
Direction: higher = stronger binding
Residues (chain): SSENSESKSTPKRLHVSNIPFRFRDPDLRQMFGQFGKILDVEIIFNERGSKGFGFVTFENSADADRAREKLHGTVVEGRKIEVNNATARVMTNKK
Oligonucleotide	RBNS enrichment (R)
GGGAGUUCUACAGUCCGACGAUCAAAGGAAUCUGAUUAACAUUUAUGCAUUUUAUUUUCAGAAGGACUUUCAGUUAUCCAUAAAUCUAAGCAUAACUGCUACCAUUUAUACAUGAGAAAAUGACAGAGGAACUUGGAAUUCUCGGGUGCCAA	0.522
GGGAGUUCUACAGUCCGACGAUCUAAGGGUAAAGUUUCACAGCUGACAUUAGCCUGAGGAUUAGCACUAAAGAGCUGUGUUUUCAUAGCAGGGGCUAUUGUACAGACAGUGAUAACCAAAUAGUAAUAUGCCAUGGAAUUCUCGGGUGCCAA	0.433
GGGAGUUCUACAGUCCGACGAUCAAACACCUUUUUCUAAACACUUUCUUAUAAAAUGCAUUUGGAAACUAGACCUUUGCUACCACUGUCUCUGGGUUUUUGUAUCAGUCCCAACUUCUCAGGCUGUCUUGCCCUGGAAUUCUCGGGUGCCAA	0.288
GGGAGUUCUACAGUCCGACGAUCGACAUAAACUGCGAUAGCUUCAGCUUGCACUGUGGAUUUUCUGUAUAGAAUAUAUAAAACAUAACUUCAAGCUUAUGUCUUCUUUUUAAAACAUCUGAAGUAUGGGACGCUGGAAUUCUCGGGUGCCAA	0.446
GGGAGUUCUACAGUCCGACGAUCCUCCCUGCCAGCCUCCUGUGUCAAACCAGGUCCCUUCUCAGUACUGUAUUGGCUCAGUGCUUUCAGGAGUGAGUGUGUGAGUGAGUGUGUGAGUGUGUGUGGGCGUGAGCUGGAAUUCUCGGGUGCCAA	0.868
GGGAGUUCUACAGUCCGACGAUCGCUGUGCCUGCUCGUGUUGCCUACAUGUCCCUGGCUGUUGAGGCGCUGCUUCAGCCUGCACCCCUCCCUUGUCUCAUAGAUGCUCCUUUUGACCUUUUCAAAUAAAUAUGUGGAAUUCUCGGGUGCCAA	1.33
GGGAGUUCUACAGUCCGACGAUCAAUUAUUUUAUAUGACCUAUAAAUUUAAAAAUGUUUUUCAGUGAGUGCUUUUAACAAACUUAAGCUUCUGCCCUGCCAAGGGAAUUAAUGUUAUCUUGUGAAAGGUGUUGUGGAAUUCUCGGGUGCCAA	0.346
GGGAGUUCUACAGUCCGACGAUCAGCUGCCCACCCAACCUGGUCUUCACACCAGAUUGCACAGGAUACUGGGUCUUGUCUAUCUUGAUGGAGAAGAGGGGUUCCUGCCCAGGAUCUUACAACACAGCAAGUAGUGGAAUUCUCGGGUGCCAA	0.567

A few entries again (series 4):
Oligonucleotide	E-score
CGTAAACC	-0.194
CAGCGTAA	0.0893
ACCGGGAT	-0.269
GACTACCC	-0.238
ATCTAACC	0.0198
CGTATAAA	0.34
GCTTGACA	-0.0174
